Published values from different studies.
A part holds a random share of what one study measured. “And” joins repeats or separate records; there may be more than shown.
Sequence of UniProt Q96SW2 (whole entry, looked up): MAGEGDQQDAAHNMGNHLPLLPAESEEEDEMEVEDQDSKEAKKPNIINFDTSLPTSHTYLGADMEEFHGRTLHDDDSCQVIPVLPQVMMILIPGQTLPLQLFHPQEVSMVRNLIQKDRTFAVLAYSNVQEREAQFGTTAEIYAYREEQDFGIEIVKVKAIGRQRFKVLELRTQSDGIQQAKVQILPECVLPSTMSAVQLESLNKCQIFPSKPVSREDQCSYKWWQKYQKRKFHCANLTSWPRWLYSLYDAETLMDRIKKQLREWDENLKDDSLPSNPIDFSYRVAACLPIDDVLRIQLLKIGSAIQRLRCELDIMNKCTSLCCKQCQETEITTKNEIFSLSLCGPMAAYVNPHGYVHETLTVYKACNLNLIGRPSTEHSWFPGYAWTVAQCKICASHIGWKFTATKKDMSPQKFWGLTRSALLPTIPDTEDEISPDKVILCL
Sequence of UniProt Q9UKS7 (whole entry, looked up): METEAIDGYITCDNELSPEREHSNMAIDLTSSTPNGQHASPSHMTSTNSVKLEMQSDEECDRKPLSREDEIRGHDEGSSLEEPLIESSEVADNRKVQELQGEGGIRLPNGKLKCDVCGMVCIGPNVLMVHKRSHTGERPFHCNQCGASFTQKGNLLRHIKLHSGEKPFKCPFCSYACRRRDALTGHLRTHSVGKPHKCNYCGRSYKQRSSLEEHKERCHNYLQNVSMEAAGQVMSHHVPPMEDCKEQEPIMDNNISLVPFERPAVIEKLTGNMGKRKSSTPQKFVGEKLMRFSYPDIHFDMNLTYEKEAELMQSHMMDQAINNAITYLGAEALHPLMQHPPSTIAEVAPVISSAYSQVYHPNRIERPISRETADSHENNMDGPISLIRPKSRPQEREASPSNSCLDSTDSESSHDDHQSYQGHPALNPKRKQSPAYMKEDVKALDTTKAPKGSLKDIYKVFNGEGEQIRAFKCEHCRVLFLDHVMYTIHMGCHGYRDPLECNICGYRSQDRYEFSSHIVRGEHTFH
Sequence of UniProt Q388M1 (whole entry, looked up): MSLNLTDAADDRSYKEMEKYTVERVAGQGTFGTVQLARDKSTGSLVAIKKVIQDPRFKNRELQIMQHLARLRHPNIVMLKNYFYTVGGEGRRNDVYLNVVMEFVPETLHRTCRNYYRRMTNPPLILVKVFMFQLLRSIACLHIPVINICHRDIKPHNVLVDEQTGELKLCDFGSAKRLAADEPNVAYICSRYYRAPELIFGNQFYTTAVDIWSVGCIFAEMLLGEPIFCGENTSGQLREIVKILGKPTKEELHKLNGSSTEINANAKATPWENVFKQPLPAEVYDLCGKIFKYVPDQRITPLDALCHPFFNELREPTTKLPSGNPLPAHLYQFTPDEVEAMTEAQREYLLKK
Sequence of UniProt O75417 (whole entry, unmodified, looked up): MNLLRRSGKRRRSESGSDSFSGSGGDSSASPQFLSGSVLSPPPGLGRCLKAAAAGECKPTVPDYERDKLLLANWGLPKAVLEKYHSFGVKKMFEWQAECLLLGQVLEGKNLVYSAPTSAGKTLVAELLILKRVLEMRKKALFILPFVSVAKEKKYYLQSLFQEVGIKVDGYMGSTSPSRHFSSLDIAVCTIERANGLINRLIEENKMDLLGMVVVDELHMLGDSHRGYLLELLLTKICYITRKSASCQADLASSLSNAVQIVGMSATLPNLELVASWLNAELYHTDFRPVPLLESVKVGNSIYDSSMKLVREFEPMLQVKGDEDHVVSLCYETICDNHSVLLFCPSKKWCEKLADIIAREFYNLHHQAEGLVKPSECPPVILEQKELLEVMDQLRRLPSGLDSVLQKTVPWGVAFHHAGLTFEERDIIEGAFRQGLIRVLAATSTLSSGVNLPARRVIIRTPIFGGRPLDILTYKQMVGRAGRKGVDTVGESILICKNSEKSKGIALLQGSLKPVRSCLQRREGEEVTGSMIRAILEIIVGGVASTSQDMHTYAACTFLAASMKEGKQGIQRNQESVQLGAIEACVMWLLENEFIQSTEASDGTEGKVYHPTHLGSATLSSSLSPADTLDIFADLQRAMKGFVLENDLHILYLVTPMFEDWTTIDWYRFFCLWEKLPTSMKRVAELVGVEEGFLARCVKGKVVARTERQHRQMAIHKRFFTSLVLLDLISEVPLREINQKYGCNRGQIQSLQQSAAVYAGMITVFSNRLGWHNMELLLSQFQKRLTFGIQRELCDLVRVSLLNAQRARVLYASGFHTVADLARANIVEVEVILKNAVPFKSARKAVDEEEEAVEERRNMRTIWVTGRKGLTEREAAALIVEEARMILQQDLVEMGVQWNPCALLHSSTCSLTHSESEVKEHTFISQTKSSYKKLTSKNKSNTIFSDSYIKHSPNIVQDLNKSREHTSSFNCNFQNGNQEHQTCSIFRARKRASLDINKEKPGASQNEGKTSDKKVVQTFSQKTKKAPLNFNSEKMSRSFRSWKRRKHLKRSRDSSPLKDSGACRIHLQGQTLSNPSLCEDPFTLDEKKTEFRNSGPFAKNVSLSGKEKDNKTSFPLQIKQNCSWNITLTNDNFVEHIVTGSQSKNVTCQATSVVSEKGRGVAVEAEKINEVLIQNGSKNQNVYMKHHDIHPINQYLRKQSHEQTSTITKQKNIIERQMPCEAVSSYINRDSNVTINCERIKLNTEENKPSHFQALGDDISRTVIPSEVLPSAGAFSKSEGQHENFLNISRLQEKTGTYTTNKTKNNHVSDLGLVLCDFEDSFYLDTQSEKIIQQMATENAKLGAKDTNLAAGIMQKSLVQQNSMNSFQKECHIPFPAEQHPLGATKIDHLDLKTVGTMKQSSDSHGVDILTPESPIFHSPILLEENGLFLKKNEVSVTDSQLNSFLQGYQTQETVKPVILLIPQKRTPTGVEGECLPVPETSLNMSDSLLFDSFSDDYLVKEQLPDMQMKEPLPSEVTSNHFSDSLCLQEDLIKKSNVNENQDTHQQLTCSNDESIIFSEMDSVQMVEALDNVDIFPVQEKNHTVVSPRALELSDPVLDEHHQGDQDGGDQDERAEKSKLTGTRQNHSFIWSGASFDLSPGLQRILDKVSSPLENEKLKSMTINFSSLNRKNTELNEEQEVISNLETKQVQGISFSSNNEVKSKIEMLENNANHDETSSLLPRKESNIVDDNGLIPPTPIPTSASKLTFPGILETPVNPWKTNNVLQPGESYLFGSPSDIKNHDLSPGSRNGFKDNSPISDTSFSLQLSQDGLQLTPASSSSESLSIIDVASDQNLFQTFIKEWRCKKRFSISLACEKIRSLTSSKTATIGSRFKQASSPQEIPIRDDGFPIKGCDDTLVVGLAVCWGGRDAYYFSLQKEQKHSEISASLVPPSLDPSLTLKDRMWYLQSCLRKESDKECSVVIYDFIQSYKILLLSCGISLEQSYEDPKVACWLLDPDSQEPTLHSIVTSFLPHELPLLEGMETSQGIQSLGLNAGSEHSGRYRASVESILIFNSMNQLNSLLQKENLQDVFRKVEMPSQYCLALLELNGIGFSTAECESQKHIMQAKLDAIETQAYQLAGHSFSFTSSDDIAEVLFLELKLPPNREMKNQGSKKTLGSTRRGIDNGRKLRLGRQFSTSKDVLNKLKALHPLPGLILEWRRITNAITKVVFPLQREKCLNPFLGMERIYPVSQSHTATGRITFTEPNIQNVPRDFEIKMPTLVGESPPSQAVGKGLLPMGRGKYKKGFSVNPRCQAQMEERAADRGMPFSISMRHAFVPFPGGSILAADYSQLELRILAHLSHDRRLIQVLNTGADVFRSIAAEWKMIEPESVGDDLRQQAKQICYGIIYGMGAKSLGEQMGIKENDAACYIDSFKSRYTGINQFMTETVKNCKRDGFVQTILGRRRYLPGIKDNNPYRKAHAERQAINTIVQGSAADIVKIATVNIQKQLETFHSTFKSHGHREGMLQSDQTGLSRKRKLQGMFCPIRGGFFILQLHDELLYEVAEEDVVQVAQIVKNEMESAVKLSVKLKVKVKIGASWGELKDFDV

Study 1
Cell line: A-375
Tested at: 100 µM
Time: 36 h
SMILES	viability
COC1=C[C@@H]2[C@@H]3Cc4ccc(OC)c(O)c4[C@]2(CCN3C)CC1=O	92.5%
CCOC(=O)c1cncn1[C@H](C)c1ccccc1	83%
CC[C@]12C=CCN3CC[C@]4(C(=C(C(=O)OC)C1)Nc1ccccc14)[C@@H]32	11.2%
N#Cc1ccccc1-c1cc(-c2ccccn2)cn(-c2ccccc2)c1=O	80.9%
CC[C@@H](C(N)=O)N1CCCC1=O	103%

Study 2
Structure (SMILES): CC(=O)N[C@@H](Cc1c[nH]c2ccccc12)C(=O)N[C@@H](CCC(=O)C=[N+]=[N-])C(=O)OC(C)C
system	setting	how to read	body weight
C57BL/6 CES1-/- mouse, EL4 tumour	intravenous, 1 mg/kg DON equivalent, treatment day 16, 5 days per week	baseline: baseline	93% and 96% and 100% and 92% and 110%
C57BL/6 CES1-/- mouse, both sexes	1 mg/kg, day 17	–	105% and 90.9% and 89.7% and 95.5% and 100%
C57BL/6 CES1-/- mouse, EL4 tumour	intravenous, 1 mg/kg DON equivalent, treatment day 14, 5 days per week	baseline: baseline	110% and 93% and 100% and 96%

Study 3
Target: Muscarinic acetylcholine receptor M3 (CHRM3, Homo sapiens, UniProt P20309)
Sequence of UniProt P20309 (whole entry, looked up): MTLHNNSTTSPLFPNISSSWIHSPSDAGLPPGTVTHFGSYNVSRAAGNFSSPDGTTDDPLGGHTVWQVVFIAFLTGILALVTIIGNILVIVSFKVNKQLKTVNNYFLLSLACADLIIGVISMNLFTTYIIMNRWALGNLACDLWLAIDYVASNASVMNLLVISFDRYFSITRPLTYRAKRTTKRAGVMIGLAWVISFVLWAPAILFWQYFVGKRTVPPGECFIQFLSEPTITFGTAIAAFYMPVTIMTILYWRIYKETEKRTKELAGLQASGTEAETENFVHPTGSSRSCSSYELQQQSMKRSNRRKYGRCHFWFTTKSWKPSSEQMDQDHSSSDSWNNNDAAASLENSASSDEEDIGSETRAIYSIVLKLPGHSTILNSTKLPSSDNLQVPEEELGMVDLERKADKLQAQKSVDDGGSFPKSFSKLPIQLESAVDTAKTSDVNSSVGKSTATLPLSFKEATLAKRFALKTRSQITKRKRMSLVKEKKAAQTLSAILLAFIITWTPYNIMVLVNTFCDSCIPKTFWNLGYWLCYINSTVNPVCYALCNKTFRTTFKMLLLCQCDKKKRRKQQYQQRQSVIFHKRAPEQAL
Read-out: ligand displacement
Tested at: 10 µM
Structure (SMILES)	inhibition [%]
CC1=C(C#N)C(c2ccc3[nH]nc(C)c3c2)C(C#N)=C(C)N1	-1.54
CC(=O)N1CCC(c2ccc(C(=O)NC3=NCCN3)cc2C(F)(F)F)CC1	-10.9
NC(=O)c1ccc2nc(-c3ccc(C4(N)CCC4)cc3)c(-c3ccccc3)n2n1	20.1
C[C@@H](c1cccc(C#N)c1)n1cc(Cl)cc(C(N)=O)c1=N	-6.17
CN(C)CC#Cc1ccc(OCCCc2sc(N3CCc4cccc(C(=O)Nc5nc6ccccc6s5)c4C3)nc2C(=O)O)c(F)c1	-10.7
Cn1cc(Cl)c2c(Oc3c(F)cc(Nc4cc(Cl)nc(N)n4)cc3F)ccnc21	-4.88
CN1CCN(C(=O)C(C)(C)c2ccc(C(=O)Nc3cn4cc(-c5cc(C(C)(C)C)cc(C(C)(C)C)c5)ccc4n3)cc2)CC1	40.4
C[C@H](c1ccc(F)cc1)N(Cc1cccc(C(=O)O)c1)C(=O)c1cnc2ccccc2c1	-7.68
COc1cc(N[C@@H]2CCCC[C@]2(O)C(F)(F)F)ccc1F	25.6
CC(=O)Nc1ncc(CN2CCC[C@H](Cc3cc(C)nc(C)c3)C2)s1	8.4
CC1CCN(c2ccnc(NCc3cn(C)cn3)n2)CC1	7.48
Cc1noc([C@H]2C[C@@H](c3ccc(C(F)(F)F)cc3)CN(C(=O)N3CCS(=O)(=O)C3)C2)n1	-1.45
O=C(NS(=O)(=O)c1ccc(NCC2CCOCC2)c([N+](=O)[O-])c1)c1ccc(N2CCN(Cc3ccc(C(F)(F)F)cc3-c3ccc(Cl)cc3)CC2)cc1Oc1cnc2[nH]ccc2c1	12.6

Single results of other studies
SMILES	target or system	assay	system	setting	how to read	measurement	value
O=C1CCC(N2Cc3c(ccc4c3OCC43CCN(CC4CCCCC4)CC3)C2=O)C(=O)N1 (centres unmarked)	CRBN/Zinc finger protein Helios (Homo sapiens, UniProt Q96SW2+Q9UKS7)	degrader, HiBiT	HEK293	13.72 nM	–	protein remaining	64.2%
COc1ccc(OC)c(C(O)C(C)N)c1 (centres unmarked)	mouse MPNST tumor cells	high-content nuclear imaging, item: cell number	–	10 µM, 12 h, mean of 2 replicates	baseline: plate mean, higher = more cells	nuclei count	0.829 z-score
NC[C@@H](O)c1ccc(O)cc1 (racemic)	DNA polymerase theta, ATPase domain (POLQ, Homo sapiens, UniProt O75417)	enzyme activity, inhibitor	–	77 µM	baseline: untreated	remaining activity	102%
CC(=O)NC1CCSC1=O (racemic)	mouse MPNST tumor cells	high-content nuclear imaging, item: cell number	–	10 µM, 12 h, mean of 2 replicates	baseline: plate mean, higher = more cells	nuclei count	3.51 z-score
CC(C)(C)c1cnc(CSc2cnc(NC(=O)C3CCNCC3)s2)o1	GSK3 (Trypanosoma brucei, UniProt Q388M1)	binding, kinobead competition	Trypanosoma brucei lysate	–	–	IC50	> 10 µM
